Published values collected from several papers.
Lines come from different studies, so protocols differ. Several values in a cell are separate wells, animals, samples, runs or records. ± marks the error that the study gave.

CC1CNCCN1C(=O)c1cn(C23CCCC(C)(CCC4C2CC4(C)C)C3)nn1 (stereo not drawn)  inhibition (HT-29; cell growth or viability, CCK-8; 10 µM): 67.3%
Cc1cc(Cl)cc(-c2ccnc3cc(CN4C(=O)C5C(C4=O)C5(C)C)sc23)c1C[C@@H]1CNCCO1 (stereo partly drawn)  late apoptotic cells (CHP-212 resistant; annexin V/PI flow cytometry; 0.3 µM, 48 h): 8.03% and 8.41% and 4.46%
CC(CCC(=O)OCc1cccc(CN(C(=O)OCc2ccc(B3OC(C)(C)C(C)(C)O3)cc2)[c-]2cccc2)c1)C1CCC2C3C(O)CC4CC(O)CCC4(C)C3CC(O)C12C.[Fe+2].c1cc[cH-]c1 (stereo not drawn)  mRNA level (A2780; qPCR, measured: CHOP; 5 µM, 24 h, unit not given; reference: untreated): 1100 ± 487
CN1CCCNC(=O)c2cccc(c2)C(=O)NCCCN(C)CCCNc2cccc3c2C(=O)c2cccc(c2C3=O)NCCC1  log2 fold change (SAS; RNA-Seq, measured: NOC3L mRNA; 1 µM, 6 h; reference: untreated cells): -0.725
N#C[C@@H]1CCCN1C(=O)CNC(=O)c1ccnc2ccc(OCCCN3CCN(C(=O)CCc4ccc5c(c4)CN4CCN6CC(=O)[O][68Ga-]([O]C(=O)C4)([O]5)[O]c4ccc(CCC(=O)N5CCN(CCCOc7ccc8nccc(C(=O)NCC(=O)N9CCC[C@H]9C#N)c8c7)CC5)cc4C6)CC3)cc12  internalized fraction (HT1080 cells expressing human FAP; 60 min, 37 °C): 81.6 ± 3%
COc1ccccc1CNC[C@](O)(COCc1ccccc1)[C@@H]1CC[C@@H](C)C[C@H]1OCc1ccccc1  inhibition (A2780; cell growth or viability, MTT; 30 µM, 72 h): 90.2%
O=S(=O)(N[C@H]1CCO[C@@H](C2c3ccccc3CCc3ccccc32)C1)c1ccc(OC(F)(F)F)cc1  Bad phosphorylation (D341; immunoblot; concentration not given, 72 h): decreased
CCCCCCc1cccc([C@H](O)C[C@H](CO)NC(=O)CCCCCOc2ccc3ccccc3c2)c1  sphingomyelin level (HeLa; CERT activity, HPLC-MS/MS lipidomics, measured: sphingomyelin 24; 1 µM, 24 h, not cell-number normalised): 61000 pmol/sample and 35800 pmol/sample and 58300 pmol/sample
CCN(CC)CC(=O)Nc1cccc(-n2cc(-c3ccc4ccc(-c5cn(-c6cccc(NC(=O)CN(CC)CC)c6)nn5)cc4c3)nn2)c1  fold regulation (RCC4; PCR angiogenesis array, measured: HIF1A; 5 x IC50, 6 h, normoxia; reference: untreated): -1.58
Cc1ncsc1-c1ccc(C(C)NC(=O)C2CC(O)CN2C(=O)C(NC(=O)CCCCCCCCCCN2CCCC(Nc3ncc(Cl)c(Nc4ccccc4S(=O)(=O)C(C)C)n3)C2)C(C)(C)C)cc1 (stereo not drawn)  log2 fold change (22Rv1; RNA-seq, measured: PLXNC1 mRNA; concentration not given; reference: DMSO): -3.12
O=C(C[Se]C(=O)C12CC3CC(CC(C3)C1)C2)Nc1cccc(C(F)(F)F)c1  TGI (NCI60 NSCLC subpanel mean; cell growth): 8.74 µM
CC(=O)N[C@@H](CC(=O)O)C(=O)N[C@@H](Cc1ccc2ccccc2c1)C(=O)N[C@@H](C)C(=O)N[C@@H](CC(=O)O)C(=O)COC(=O)c1c(C)cccc1C  cell lysis (THP-1 cells, LPS-primed; pyroptosis, LDH release; 25 µM, LPS 1 µg/mL, 4 h, added: nigericin 5 µM, 2 h): 90.6% and 70.7%
COc1ccc(COC[C@](O)(CNCc2ccc(F)cc2)[C@@H]2CC[C@@H](C)C[C@H]2OCc2ccc(OC)cc2)cc1  inhibition (A2780; cell growth or viability, MTT; 30 µM, 72 h): 100%
CCC(=CCc1c(O)cc2c(c1O)C(=O)CC(c1cc(OC)ccc1O)O2)CC (stereo not drawn)  inhibition (HeLa; cell growth or viability, MTT; 0.781 µM, 48 h): 0.356%
COC1CCN(C(=O)/C=C/c2nn(Cc3cccc(C(F)(F)F)c3)c3nc(N4CCOCC4)ncc23)CC1  EC50 (OE33; cell growth or viability, resazurin; 5 days): > 30 µM
CCC(=CCc1c(O)cc2c(c1O)C(=O)CC(c1cccc(OC)c1O)O2)CC (stereo not drawn)  inhibition (HeLa; cell growth or viability, MTT; 3.125 µM, 48 h): 0.219%
CNS(=O)(=O)Nc1nccc(Cc2c(C)c3ccc(Oc4ncccc4F)cc3oc2=O)c1F  IC50 (MP41; cell viability; 7 days): 0.0798 µM
CC12CCCC(NC(=O)c3ccc(F)cc3)(C1)C1CC(C)(C)C1CC2 (stereo not drawn)  inhibition (HT-29; cell growth or viability, CCK-8; 300 µM): 74.9%
